# Published values from different studies.
# Protocols differ between the studies behind these lines. Numbers after ± are the reported error.
# Target: Tyrosine-protein kinase ABL2 (ABL2, Homo sapiens, UniProt P42684)
# UniProt P42684, sequence (whole entry, looked up): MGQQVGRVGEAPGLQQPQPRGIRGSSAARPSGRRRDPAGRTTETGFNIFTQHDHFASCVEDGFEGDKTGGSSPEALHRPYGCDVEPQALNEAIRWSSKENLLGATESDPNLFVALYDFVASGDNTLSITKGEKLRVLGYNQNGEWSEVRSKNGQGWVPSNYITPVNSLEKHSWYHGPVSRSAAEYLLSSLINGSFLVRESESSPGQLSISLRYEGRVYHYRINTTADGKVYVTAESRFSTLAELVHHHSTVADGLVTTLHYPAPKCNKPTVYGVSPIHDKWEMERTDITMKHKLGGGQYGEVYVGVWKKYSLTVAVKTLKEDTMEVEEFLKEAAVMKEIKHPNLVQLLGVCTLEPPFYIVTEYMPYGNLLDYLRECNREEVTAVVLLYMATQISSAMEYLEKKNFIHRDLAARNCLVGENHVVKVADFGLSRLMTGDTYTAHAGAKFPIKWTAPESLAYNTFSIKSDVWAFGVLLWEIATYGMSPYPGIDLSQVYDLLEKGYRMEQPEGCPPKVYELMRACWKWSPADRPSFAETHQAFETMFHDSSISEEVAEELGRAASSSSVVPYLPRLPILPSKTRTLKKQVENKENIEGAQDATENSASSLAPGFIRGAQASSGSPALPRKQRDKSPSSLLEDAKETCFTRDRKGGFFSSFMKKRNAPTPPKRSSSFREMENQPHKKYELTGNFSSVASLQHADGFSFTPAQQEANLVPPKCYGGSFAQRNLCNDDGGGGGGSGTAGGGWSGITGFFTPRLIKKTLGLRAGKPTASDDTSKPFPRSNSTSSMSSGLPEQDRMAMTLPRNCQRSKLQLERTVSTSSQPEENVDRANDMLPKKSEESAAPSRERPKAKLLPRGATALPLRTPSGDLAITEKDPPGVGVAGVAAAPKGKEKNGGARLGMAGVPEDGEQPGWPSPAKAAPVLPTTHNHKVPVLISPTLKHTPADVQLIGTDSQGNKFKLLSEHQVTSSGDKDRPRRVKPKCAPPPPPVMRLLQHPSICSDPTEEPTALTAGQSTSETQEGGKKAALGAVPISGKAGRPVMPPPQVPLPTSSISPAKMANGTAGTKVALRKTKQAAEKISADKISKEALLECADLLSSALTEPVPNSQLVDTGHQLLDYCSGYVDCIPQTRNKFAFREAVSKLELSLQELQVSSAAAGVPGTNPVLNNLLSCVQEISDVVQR
Structure (SMILES),assay,conditions,how to read,endpoint,value
CC#CC(=O)N1CCC[C@H]1c1nc(-c2ccc(C(=O)Nc3ccccn3)cc2)c2c(N)nccn12,"kinase activity, inhibitor, HotSpot radiometric","100 nM, added: ATP 10 µM",,remaining activity,95.5 ± 2.1%
Cc1cc(Nc2cc(N3CCN(C)CC3)nc(Sc3ccc(NC(=O)C4CC4)cc3)n2)[nH]n1,"kinase activity, KinaseProfiler","0.03 µM, species human",relative to: control,remaining activity,27%
C=CC(=O)N1CCC[C@@H](n2nc(-c3ccc(Oc4ccccc4)cc3)c3c(N)ncnc32)C1,,10 µM,,remaining activity,548%
CNc1ncc2c(/C=C/C(=O)N3CCC(OC)CC3)nn(Cc3cccc(C(F)(F)F)c3)c2n1,"kinase activity, inhibitor",1 µM,relative to: untreated control,remaining activity,95%
[2H]c1cc(C)c(NC(=O)c2cnc(Nc3cc(N4CCCCC4)nc(C)n3)s2)c(Cl)c1,,0.01 µM,,inhibition,> 90%
C=CC(=O)N1CCC(COCC(=O)N2CCN(c3nc(-c4cnc(N)nc4C(F)F)nc(N4CCOC[C@@H]4C)n3)CC2)CC1,KINOMEscan,1 µM,,remaining binding,93%
C=CC(=O)N1CCC([C@@H]2CCNc3c(C(N)=O)c(-c4ccc(Oc5ccccc5)cc4)nn32)CC1,"kinase activity, inhibitor, HotSpot radiometric","100 nM, added: ATP 10 µM",,remaining activity,90.1 ± 0.4%
COc1cc(-c2cncc3c2CN(C)Cc2cc(N4CCNCC4)ccc2-3)cc(OC)c1OC,kinase activity,"1 µM, human enzyme, added: ATP 10 µM",relative to: DMSO control,remaining activity,96%
O=C(NC1CCC1)c1ccc2nc(-c3cccc(NS(=O)(=O)NCCN4CCCCC4)c3)cn2c1,enzyme activity,10 µM,,remaining activity,100%
C=CC(=O)N1CCC[C@@H](n2nc(-c3ccc(Oc4ccccc4)cc3)c3c(N)ncnc32)C1,"kinase activity, inhibitor, HotSpot radiometric","100 nM, added: ATP 10 µM",,remaining activity,76.4 ± 0.4%

# For quick reference, copied from above:
Structure (SMILES),assay,conditions,how to read,endpoint,value
[2H]c1cc(C)c(NC(=O)c2cnc(Nc3cc(N4CCCCC4)nc(C)n3)s2)c(Cl)c1,,0.01 µM,,inhibition,> 90%
